Assay results from different studies.
Protocols differ between the studies behind these lines.

Structure (SMILES)	assay	system	conditions	Kd [µM]
CC(C)C[C@H](NC=O)C(=O)N[C@@H](C)C(=O)N[C@@H](C)C(=O)N[C@@H](CC(=O)O)C(=O)N[C@@H](CC(C)C)C(=O)N[C@@H](CC(C)C)C(=O)N[C@@H](C)C(=O)N[C@@H](C)C(=O)N[C@@H](CC(C)C)C(=O)NCC(=O)N[C@@H](CC(=O)O)C(=O)N[C@@H](CC(C)C)C(=O)N[C@@H](C)C(=O)N[C@@H](CCCCN)C(=O)N[C@@H](Cc1c[nH]c2ccccc12)C(=O)N[C@@H](CC(C)C)C(=O)N[C@@H](CC(C)C)C(=O)N[C@@H](CC(=O)O)C(=O)N[C@@H](C)C(=O)N[C@@H](CC(C)C)C(=O)N[C@@H](C)C(=O)N[C@@H](CCCCN)C(=O)N[C@@H](C)C(=O)N[C@@H](C)C(=O)N[C@@H](CCCCN)C(=O)N[C@@H](CCCCN)C(=O)O (racemic)	membrane binding, stopped-flow FRET	POPC vesicles	pH 7.5, room temperature	200
CC[C@H](C)[C@H](N)C(=O)N[C@H](C(=O)N[C@@H](CO)C(=O)N[C@H](C(=O)N[C@H](C(=O)NCC(=O)N[C@@H](CC(=O)O)C(=O)N[C@@H](CC(C)C)C(=O)N[C@H](C(=O)N[C@@H](CCCCN)C(=O)N[C@@H](Cc1c[nH]c2ccccc12)C(=O)N[C@H](C(=O)N[C@H](C(=O)N[C@@H](CC(=O)O)C(=O)N[C@H](C(=O)N[C@H](C(=O)N[C@@H](CC(N)=O)C(=O)N[C@@H](CCCCN)C(=O)N[C@@H](Cc1ccccc1)C(=O)N[C@H](C(=O)N[C@@H](CCCCN)C(=O)N[C@@H](CCCCN)C(=O)O)[C@@H](C)O)C(C)C)[C@@H](C)O)[C@@H](C)CC)[C@@H](C)CC)C(C)C)[C@@H](C)CC)[C@@H](C)O)[C@@H](C)CC	lipid vesicle binding	POPC vesicles	pH 7.5	4.6
C[C@H](NC(=O)[C@H](CCC(N)=O)NC(=O)[C@H](C)NC(=O)[C@H](CCCCN)NC(=O)[C@H](CCC(N)=O)NC(=O)[C@H](C)NC(=O)[C@H](CCCCN)NC(=O)[C@H](CCC(N)=O)NC(=O)[C@H](C)NC(=O)[C@H](CCC(N)=O)NC(=O)[C@H](CCCCN)NC(=O)[C@H](C)NC(=O)[C@H](CCC(N)=O)NC(=O)[C@H](CCCCN)NC(=O)[C@H](C)NC(=O)[C@H](CCC(N)=O)NC(=O)[C@H](C)NC(=O)[C@H](CCCCN)NC(=O)[C@H](CCC(N)=O)NC(=O)[C@H](C)NC(=O)[C@H](CCCCN)NC(=O)[C@H](CO)NC(=O)[C@H](Cc1ccc(O)cc1)NC(=O)CNC(=O)CNC(=O)CN)C(=O)N[C@@H](CCCCN)C(=O)N[C@@H](CCC(N)=O)C(=O)N[C@@H](C)C(=O)N[C@@H](CCCCN)C(=O)N[C@@H](CCC(N)=O)C(=O)O	binding, SPR Langmuir fit	rVλ6Wil fibrils	pH 7.4	0.0037
CC(C)C[C@H](NC(=O)CN)C(=O)NCC(=O)N[C@@H](CCCCN)C(=O)N[C@@H](CC(C)C)C(=O)N[C@@H](CC(C)C)C(=O)N[C@@H](Cc1c[nH]cn1)C(=O)N[C@@H](C)C(=O)N[C@@H](C)C(=O)N[C@@H](CCCCN)C(=O)N[C@@H](CCCCN)C(=O)N[C@@H](CC(C)C)C(=O)NCC(=O)N[C@@H](CCCCN)C(=O)N[C@@H](C)C(=O)N[C@@H](Cc1c[nH]c2ccccc12)C(=O)N[C@@H](CC(C)C)C(=O)NCC(=O)N[C@@H](CCC(=O)O)C(=O)N[C@@H](CC(C)C)C(=O)N[C@@H](CC(C)C)C(=O)N[C@@H](C)C(=O)N[C@@H](C)C(=O)O	membrane binding, stopped-flow FRET	POPC vesicles	room temperature, extrapolated from POPC/POPG	1100
CC[C@@](C)(NC)C(=O)NC(C)(C)C(=O)NC(C)(C)C(=O)NC(C)(C)C(=O)NCC(=O)NC(C)(C)C(=O)N1CCC[C@@H]1C(=O)N[C@@H](Cc1c[nH]c2ccccc12)C(=O)NC(C)(C)C(=O)N1C[C@H](O)C[C@@H]1C(=O)N[C@@H](C)C(=O)NC(C)(C)C(=O)NCCCC(=O)N[C@@H](CC(C)C)C(=O)N[C@](C)(CC)C(=O)NC(C)(C)C(=O)N[C@](C)(CC)C(=O)N[C@H](CO)Cc1ccccc1	binding, ITC	10 to 30% methanol	2 °C, together with: POPG	0.312
CC[C@H](C)[C@H](NC(=O)[C@H](CC(N)=O)NC(=O)[C@H](CCCCN)NC(=O)[C@@H](NC(=O)[C@@H](N)CC(C)C)[C@@H](C)CC)C(=O)NCC(=O)N[C@H](C(=O)N[C@H](C(=O)N[C@H](C(=O)N[C@@H](CO)C(=O)N[C@@H](CCCCN)C(=O)N[C@H](C(=O)N[C@H](C(=O)N[C@@H](CCCCN)C(=O)N[C@H](C(=O)N[C@H](C(=O)N[C@@H](Cc1c[nH]c2ccccc12)C(=O)N[C@@H](CCCCN)C(=O)N[C@@H](Cc1ccccc1)C(=O)N[C@H](C(=O)N[C@@H](CC(=O)O)C(=O)N[C@@H](CC(=O)O)C(=O)O)[C@@H](C)O)C(C)C)[C@@H](C)O)[C@@H](C)CC)[C@@H](C)CC)C(C)C)[C@@H](C)CC)[C@@H](C)O	lipid vesicle binding	POPC vesicles	pH 7.5	400
CC(C)C[C@H](NC(=O)CNC(=O)[C@H](CCC(=O)O)NC(=O)[C@H](CCCCN)NC(=O)[C@H](CC(C)C)NC(=O)[C@H](C)NC(=O)[C@H](C)NC(=O)CNC(=O)[C@H](C)NC(=O)[C@H](CCCCN)NC(=O)[C@H](CCC(=O)O)NC(=O)[C@H](CC(C)C)NC(=O)[C@H](CCCCN)NC(=O)[C@H](CCCCN)NC(=O)[C@H](CC(C)C)NC(=O)[C@H](CC(C)C)NC(=O)[C@H](CCCCN)NC(=O)[C@H](Cc1c[nH]c2ccccc12)NC(=O)[C@@H](N)CCCCN)C(=O)N[C@@H](CC(C)C)C(=O)N[C@@H](CCCCN)C(=O)N[C@@H](C)C(=O)NCC(=O)N1CCC[C@H]1C(=O)N[C@@H](C)C(=O)N[C@@H](CC(C)C)C(=O)N[C@@H](C)C(=O)N[C@@H](CC(C)C)C(=O)N[C@@H](CC(C)C)C(=O)NCC(=O)N[C@@H](C)C(=O)N[C@@H](C)C(=O)N[C@@H](C)C(=O)N[C@@H](C)C(=O)N[C@@H](CC(C)C)C(=O)N[C@@H](C)C(=O)N[C@@H](CCCCN)C(N)=O	membrane binding, stopped-flow FRET	POPC vesicles	room temperature, extrapolated from POPC/POPG	4700
CC[C@H](C)[C@H](N)C(=O)N[C@H](C(=O)NCC(=O)N[C@H](C(=O)N[C@H](C(=O)N[C@@H](CC(=O)O)C(=O)N[C@@H](CO)C(=O)N[C@@H](CC(C)C)C(=O)N[C@H](C(=O)N[C@@H](CCCCN)C(=O)N[C@@H](Cc1c[nH]c2ccccc12)C(=O)N[C@H](C(=O)N[C@H](C(=O)N[C@@H](CC(=O)O)C(=O)N[C@H](C(=O)N[C@H](C(=O)N[C@@H](CC(N)=O)C(=O)N[C@@H](CCCCN)C(=O)N[C@@H](Cc1ccccc1)C(=O)N[C@H](C(=O)N[C@@H](CCCCN)C(=O)N[C@@H](CCCCN)C(=O)O)[C@@H](C)O)C(C)C)[C@@H](C)O)[C@@H](C)CC)[C@@H](C)CC)C(C)C)[C@@H](C)CC)[C@@H](C)O)[C@@H](C)CC	lipid vesicle binding	POPC vesicles	pH 7.5	15
CC(C)[C@H](N)C(=O)N[C@@H](Cc1ccc(O)cc1)C(=O)N[C@@H](CCCCN)C(=O)N[C@H](C(=O)N[C@@H](CCCCN)C(=O)N[C@H](C(=O)N[C@@H](CCCCN)C(=O)N[C@H](C(=O)N[C@@H](CCCCN)C(=O)N[C@H](C(=O)N[C@@H](CCCCN)C(=O)N[C@H](C(=O)N[C@@H](CCCCN)C(=O)N[C@H](C(=O)N[C@@H](CCCCN)C(=O)N[C@H](C(=O)N[C@@H](CCCCN)C(=O)N[C@H](C(=O)O)[C@@H](C)O)C(C)C)[C@@H](C)O)C(C)C)[C@@H](C)O)C(C)C)[C@@H](C)O)C(C)C	binding, SPR Langmuir fit	rVλ6Wil fibrils	pH 7.4	0.01

A few entries again:
Structure (SMILES)	assay	system	conditions	Kd [µM]
C[C@H](NC(=O)[C@H](CCC(N)=O)NC(=O)[C@H](C)NC(=O)[C@H](CCCCN)NC(=O)[C@H](CCC(N)=O)NC(=O)[C@H](C)NC(=O)[C@H](CCCCN)NC(=O)[C@H](CCC(N)=O)NC(=O)[C@H](C)NC(=O)[C@H](CCC(N)=O)NC(=O)[C@H](CCCCN)NC(=O)[C@H](C)NC(=O)[C@H](CCC(N)=O)NC(=O)[C@H](CCCCN)NC(=O)[C@H](C)NC(=O)[C@H](CCC(N)=O)NC(=O)[C@H](C)NC(=O)[C@H](CCCCN)NC(=O)[C@H](CCC(N)=O)NC(=O)[C@H](C)NC(=O)[C@H](CCCCN)NC(=O)[C@H](CO)NC(=O)[C@H](Cc1ccc(O)cc1)NC(=O)CNC(=O)CNC(=O)CN)C(=O)N[C@@H](CCCCN)C(=O)N[C@@H](CCC(N)=O)C(=O)N[C@@H](C)C(=O)N[C@@H](CCCCN)C(=O)N[C@@H](CCC(N)=O)C(=O)O	binding, SPR Langmuir fit	rVλ6Wil fibrils	pH 7.4	0.0037
